Results pooled from the literature.
Lines come from different studies, so protocols differ. ± marks the error that the study gave.
USP20 ZnF-UBD domain: Ubiquitin carboxyl-terminal hydrolase 20, ZnF-UBD domain (USP20, Homo sapiens, UniProt Q9Y2K6)
Chain of UniProt Q9Y2K6 (whole entry, looked up): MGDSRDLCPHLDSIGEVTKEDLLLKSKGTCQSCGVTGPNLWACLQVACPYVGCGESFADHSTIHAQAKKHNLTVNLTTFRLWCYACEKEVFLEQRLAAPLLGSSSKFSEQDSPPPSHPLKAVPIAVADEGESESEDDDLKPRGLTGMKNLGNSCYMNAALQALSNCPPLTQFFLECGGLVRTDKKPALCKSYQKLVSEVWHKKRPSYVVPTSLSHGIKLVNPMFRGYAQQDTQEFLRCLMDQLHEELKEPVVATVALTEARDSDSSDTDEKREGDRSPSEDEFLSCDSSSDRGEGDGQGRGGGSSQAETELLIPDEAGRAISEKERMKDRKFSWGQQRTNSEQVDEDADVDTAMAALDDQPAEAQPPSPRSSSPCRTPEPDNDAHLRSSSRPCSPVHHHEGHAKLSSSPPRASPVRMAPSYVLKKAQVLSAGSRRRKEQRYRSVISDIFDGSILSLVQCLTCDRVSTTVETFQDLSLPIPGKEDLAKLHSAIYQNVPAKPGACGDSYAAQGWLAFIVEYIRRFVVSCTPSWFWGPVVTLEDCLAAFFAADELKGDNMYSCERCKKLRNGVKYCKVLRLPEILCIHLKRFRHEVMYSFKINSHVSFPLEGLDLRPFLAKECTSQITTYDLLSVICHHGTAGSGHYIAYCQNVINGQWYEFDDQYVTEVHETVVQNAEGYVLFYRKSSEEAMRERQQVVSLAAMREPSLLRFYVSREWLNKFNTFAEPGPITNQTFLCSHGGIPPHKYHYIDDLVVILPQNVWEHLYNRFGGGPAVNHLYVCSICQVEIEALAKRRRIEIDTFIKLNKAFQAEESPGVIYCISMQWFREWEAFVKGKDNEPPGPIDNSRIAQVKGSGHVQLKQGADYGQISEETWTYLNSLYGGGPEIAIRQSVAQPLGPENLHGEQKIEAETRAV

| SMILES | tested on | test | system | conditions | how to read | measurement | result |
| --- | --- | --- | --- | --- | --- | --- | --- |
| OC(CCN1CCCCC1)(c1ccccc1)C1CC2C=CC1C2 (stereo not shown) |  | resting-state EEG | healthy elderly humans | oral, 2 mg, eyes open, LS mean |  | EEG power, delta, Fz-Cz | 8.5 µV² |
| Nc1nc2c(c(=O)[nH]1)N=C(CNc1ccc(C(=O)N[C@@H](CCC(=O)O)C(=O)O)cc1)CN2 |  | binding, equilibrium dialysis LC-MS |  | 5 µM, thermostabilized A2AR-BRIL construct | baseline: no-protein control, direction not given | z-scored log2 fold change | 1.66 |
| O=C(O)c1ccc(Nc2ncc3c(n2)-c2ccc(Cl)cc2C(c2c(F)cccc2F)=NC3)cc1 | iCell Cardiomyocytes (hiPSC-derived) | CellTiter-Glo |  | concentration not given, 24 h | baseline: control | ATP level | 87% |
| CC(C)C[C@H](NC(=O)C[C@H](O)[C@H](CC(C)C)NC(=O)[C@H](Cc1c[nH]cn1)NC(=O)CNC(=O)[C@@H](NC(=O)[C@H](C)NC(=O)[C@H](Cc1c[nH]c2ccccc12)NC(=O)[C@H](CCC(N)=O)NC(=O)[C@@H](Cc1ccccc1)NC(=O)COCCOCCNC(=O)CCC(C(=O)O)N1CCN(CC(=O)O)CCN(CC(=O)O)CCN(CC(=O)O)CC1)C(C)C)C(N)=O (stereo partly shown) [lutetium-177 labelled] |  |  | female BALB/c nu/nu mice, muscle | intravenous, 50 pmol, 1 h |  | tissue uptake | 0.13 ± 0.04 %ID/g |
| NC(=O)c1cnc2[nH]ccc2c1N[C@@H]1[C@@H]2CC3C[C@H]1C[C@@](O)(C3)C2 |  | CD8+ CD28+ naive T cells, flow cytometry | Japanese humans, peripheral blood | 20 mg single dose | baseline: baseline | percent change | -0.15% |
| Nc1c(O)cccc1C(=O)O |  | binding, equilibrium dialysis LC-MS |  | 5 µM, thermostabilized A2AR-BRIL construct | baseline: no-protein control, direction not given | z-scored log2 fold change | 0.499 |
| CCn1c(=O)c(-c2cc[nH]n2)cc2c(C)nc(N)nc21 | NLRP3 inflammasome (mouse) |  | mouse BMDM | 10 µM |  | inhibition | 26.6% |
| C=C(OP(=O)(O)O)C(=O)O |  | binding, equilibrium dialysis LC-MS |  | 5 µM, thermostabilized A2AR-BRIL construct | baseline: no-protein control, direction not given | z-scored log2 fold change | 0.0257 |
| COc1cc(Nc2c(C#N)cnc3cc(OCCCN4CCN(C)CC4)c(OC)cc23)c(Cl)cc1Cl | iCell Cardiomyocytes (hiPSC-derived) | CellTiter-Glo |  | concentration not given, 24 h | baseline: control | ATP level | 91.1% |
| C=CCn1c(=O)c2cnc(Nc3ccc(N4CCN(C)CC4)cc3)nc2n1-c1cccc(C(C)(C)O)n1 | NLRP3 inflammasome (mouse) |  | mouse BMDM | 10 µM |  | inhibition | -12.2% |
| NCCCCN=C(N)N |  | binding, equilibrium dialysis LC-MS |  | 5 µM, thermostabilized A2AR-BRIL construct | baseline: no-protein control, direction not given | z-scored log2 fold change | 0.426 |
| CCN(CC)CCNC(=O)c1c(C)[nH]c(/C=C2\C(=O)Nc3ccc(F)cc32)c1C | iCell Cardiomyocytes (hiPSC-derived) | xCELLigence Cardio impedance |  | concentration not given, 2 h | baseline: control | beat amplitude | 113% |
| Cc1ncc(NC(=O)c2ccc(CN3CCN(C)CC3)c(C(F)(F)F)c2)cc1Nc1nccc(-c2cccnc2)n1 | NLRP3 inflammasome (mouse) |  | mouse BMDM | 10 µM |  | inhibition | 11.2% |
| CCCS(=O)(=O)Nc1ccc(F)c(C(=O)c2c[nH]c3ncc(Cl)cc23)c1F | iCell Cardiomyocytes (hiPSC-derived) | cellular impedance |  | concentration not given, 24 h | baseline: control | cell index | 97.8% |
| Cn1ncc(Cl)c1-c1cc(C(=O)N[C@H](CN)Cc2ccc(F)c(F)c2)oc1Cl | NLRP3 inflammasome (mouse) |  | mouse BMDM | 10 µM |  | inhibition | 53.8% |
| Nc1ncnc2c1ncn2[C@@H]1O[C@H](COP(=O)(O)OS(=O)(=O)O)[C@@H](OP(=O)(O)O)[C@H]1O |  | binding, equilibrium dialysis LC-MS |  | 5 µM, thermostabilized A2AR-BRIL construct | baseline: no-protein control, direction not given | z-scored log2 fold change | -0.371 |

| SMILES | tested on | test | system | conditions | how to read | measurement | result |
| --- | --- | --- | --- | --- | --- | --- | --- |
| C[S+]([O-])c1ccc(-c2nc(-c3ccncc3)c(-c3ccc(F)cc3)[nH]2)cc1 (stereo not shown) | iCell Cardiomyocytes (hiPSC-derived) | CellTiter-Glo |  | concentration not given, 24 h | baseline: control | ATP level | 97.1% |
| c1coc(-c2n[nH]cc2-c2ccnc3ccccc23)c1 | NPR1 (Candida albicans) | kinase binding, MIB/MS competition | Candida albicans lysate | 1 µM | baseline: DMSO | log2 fold change | -0.18 |
| O=C(O)Cn1ccc2ccccc2c1=O | USP20 ZnF-UBD domain |  |  |  |  | Kd | 224 µM |
| O=C1OC(C(O)CO)C(=O)C1=O (stereo not shown) |  | binding, equilibrium dialysis LC-MS |  | 5 µM, thermostabilized A2AR-BRIL construct | baseline: no-protein control, direction not given | z-scored log2 fold change | 0.0422 |
| CC(C)(C)c1cc(NC(=O)Nc2ccc(-c3cn4c(n3)sc3cc(OCCN5CCOCC5)ccc34)cc2)no1 | iCell Cardiomyocytes (hiPSC-derived) | xCELLigence Cardio impedance |  | concentration not given, 2 h | baseline: control | beat amplitude | 103% |
| Cc1ncc(CO)c(CN)c1O |  | binding, equilibrium dialysis LC-MS |  | 5 µM, thermostabilized A2AR-BRIL construct | baseline: no-protein control, direction not given | z-scored log2 fold change | 0.246 |
| COc1ncc(-c2ccc3nccc(-c4ccnnc4)c3c2)cc1NS(=O)(=O)c1ccc(F)cc1F | NLRP3 inflammasome (mouse) |  | mouse BMDM | 10 µM |  | inhibition | 44.8% |
| O=c1cc[nH]c(=O)[nH]1 |  | binding, equilibrium dialysis LC-MS |  | 5 µM, thermostabilized A2AR-BRIL construct | baseline: no-protein control, direction not given | z-scored log2 fold change | 0.436 |
| CCN(CC)CCNC(=O)c1c(C)[nH]c(/C=C2\C(=O)Nc3ccc(F)cc32)c1C | NLRP3 inflammasome (mouse) |  | mouse BMDM | 10 µM |  | inhibition | -8.48% |
| Cn1cc(-c2ccc(-c3cncc(Cl)c3N3CCC4(CCNC4=O)CC3)cc2)cn1 | COLO 205 | gene expression, microarray, refers to: HIST1H4C mRNA |  | concentration not given, 6 h | baseline: untreated cells | log2 fold change | -2.32 |
| S=C(NCc1ccc2c(c1)OCO2)N1CCN(c2ncnc3c2oc2ccccc23)CC1 | NLRP3 inflammasome (mouse) |  | mouse BMDM | 10 µM |  | inhibition | -9.37% |
| C[C@@H](Oc1cc(-n2cnc3ccc(CN4CCN(C)CC4)cc32)sc1C(N)=O)c1ccccc1C(F)(F)F | iCell Cardiomyocytes (hiPSC-derived) | xCELLigence Cardio impedance |  | concentration not given, 2 h | baseline: control | beat rate | 79.4% |
| O=C(O)Cc1cccc2cccnc12 | USP20 ZnF-UBD domain |  |  |  |  | Kd | > 1000 µM |
| COc1cc(N2CCC(N3CCN(C)CC3)CC2)ccc1Nc1ncc(Cl)c(Nc2ccccc2S(=O)(=O)C(C)C)n1 | iCell Cardiomyocytes (hiPSC-derived) | CellTiter-Glo |  | concentration not given, 24 h | baseline: control | ATP level | 83.1% |
| Nc1cc(C(F)(F)F)c(-c2cc(N3CCOCC3)nc(N3CCOCC3)n2)cn1 | NLRP3 inflammasome (mouse) |  | mouse BMDM | 10 µM |  | inhibition | 18.2% |

A few entries again:
| SMILES | tested on | test | system | conditions | how to read | measurement | result |
| --- | --- | --- | --- | --- | --- | --- | --- |
| c1coc(-c2n[nH]cc2-c2ccnc3ccccc23)c1 | NPR1 (Candida albicans) | kinase binding, MIB/MS competition | Candida albicans lysate | 1 µM | baseline: DMSO | log2 fold change | -0.18 |
| NCCCCN=C(N)N |  | binding, equilibrium dialysis LC-MS |  | 5 µM, thermostabilized A2AR-BRIL construct | baseline: no-protein control, direction not given | z-scored log2 fold change | 0.426 |
| Nc1c(O)cccc1C(=O)O |  | binding, equilibrium dialysis LC-MS |  | 5 µM, thermostabilized A2AR-BRIL construct | baseline: no-protein control, direction not given | z-scored log2 fold change | 0.499 |
| C=C(OP(=O)(O)O)C(=O)O |  | binding, equilibrium dialysis LC-MS |  | 5 µM, thermostabilized A2AR-BRIL construct | baseline: no-protein control, direction not given | z-scored log2 fold change | 0.0257 |
